{"data": "Measured values collected from several papers", "note": "Every numbered part comes from another study and shows a few of its results, in no order. Substitutions count along the parent as printed."}
{"data": "Set 1", "target": "Ras GTPase-activating protein-binding protein 1, full length (G3BP1, Homo sapiens, UniProt Q13283)", "technique": "RNA Bind-n-Seq", "molecule type": "RNA", "sample": "in vitro", "concentration": "200 nM", "notes": "whole 134-nt RNA, ends assumed", "with": "150 mM LiCl", "baseline": "input library", "reading": "higher = stronger binding", "library": "7-deaza-guanosine replaces G", "shared flanks, not repeated": "GGGAGUUCUACAGUCCGACGAUC … UGGAAUUCUCGGGUGUCAAGG", "chain of UniProt Q13283 (whole entry, looked up)": "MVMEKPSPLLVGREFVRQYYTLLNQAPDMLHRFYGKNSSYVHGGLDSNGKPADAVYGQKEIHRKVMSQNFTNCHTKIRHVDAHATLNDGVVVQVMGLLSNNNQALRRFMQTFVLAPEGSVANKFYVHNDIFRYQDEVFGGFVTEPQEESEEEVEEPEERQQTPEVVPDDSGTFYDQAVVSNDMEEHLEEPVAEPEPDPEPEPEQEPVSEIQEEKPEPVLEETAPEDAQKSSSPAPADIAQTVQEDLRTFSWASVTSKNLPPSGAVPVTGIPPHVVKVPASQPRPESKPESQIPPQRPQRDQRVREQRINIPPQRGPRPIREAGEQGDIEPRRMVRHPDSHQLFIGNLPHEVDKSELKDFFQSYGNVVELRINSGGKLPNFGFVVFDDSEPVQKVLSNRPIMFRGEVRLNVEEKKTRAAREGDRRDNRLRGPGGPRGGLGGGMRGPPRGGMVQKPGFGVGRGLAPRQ"}
{"Oligonucleotide": "GUCCUGUGCUACACAUCGUAUGUACCGAAUCGGGCCCCCCGGCCCCCCGGCCCCCCGGAAAGUAUUAUGUUACGCCGUUCGGAUCUGCAC", "log2 enrichment": -0.073}
{"Oligonucleotide": "UGCCAGGCCCACCCCCAGGUGUUCCCGCGCCUGGGGGCCCACCCCUGUCCACCGGACCUAUAGUGGACCUGCUCCAGUACAGCCAGAAGG", "log2 enrichment": 0.165}
{"Oligonucleotide": "UGCACUGACUGGUGGUGUCAACCCAUGGCUCAACUGGAAGCACUGUGGAAGAAGAUGGAGGGUGUGGUAAGUCCAUCAGACCUGGGACCG", "log2 enrichment": -2.25}
{"Oligonucleotide": "CCUCAAGUCCUGUGCUACACAUCGUAUGUACCGAAUCGGGGUGGGUGGGUGGAAAGUAUUAUGUUACGCCGUUCGGAUCUGCACUUCCAG", "log2 enrichment": -0.325}
{"Oligonucleotide": "ACCAUGCAGGUGGGCAUCUUUGGGAAGAGGGGCAAGGGGGGGAUAGGGAGGGGGGUAACACUUUGGGAACAGGUGGUCCCAGGUCGUUUC", "log2 enrichment": 0.0794}
{"Oligonucleotide": "UCAAGUCCUGUGCUACACAUCGUAUGUACCGAAUCGGGGUUGGUUGGGGUUGGGGAAAGUAUUAUGUUACGCCGUUCGGAUCUGCACUUC", "log2 enrichment": -0.418}
{"Oligonucleotide": "CUCAAGUCCUGUGCUACACAUCGUAUGUACCGAAUCGGUUGGUUGGGUUGGGGAAAGUAUUAUGUUACGCCGUUCGGAUCUGCACUUCCA", "log2 enrichment": -0.256}
{"Oligonucleotide": "AGUCCUGUGCUACACAUCGUAUGUACCGAAUCGGGGUUUGGGGAAAAAGGGGAGGGGAAAGUAUUAUGUUACGCCGUUCGGAUCUGCACU", "log2 enrichment": -0.0837}
{"data": "Set 2", "target": "CCNB3, cyclin fold, Cln2 fusion (human)", "technique": "yeast growth competition, sequencing", "sample": "yeast", "notes": "weak parent motif", "baseline": "not given", "reading": "higher = stronger binding", "starting sequence": "SAMHD1 docking peptide (human); ASKSRVQLFKDDP; partner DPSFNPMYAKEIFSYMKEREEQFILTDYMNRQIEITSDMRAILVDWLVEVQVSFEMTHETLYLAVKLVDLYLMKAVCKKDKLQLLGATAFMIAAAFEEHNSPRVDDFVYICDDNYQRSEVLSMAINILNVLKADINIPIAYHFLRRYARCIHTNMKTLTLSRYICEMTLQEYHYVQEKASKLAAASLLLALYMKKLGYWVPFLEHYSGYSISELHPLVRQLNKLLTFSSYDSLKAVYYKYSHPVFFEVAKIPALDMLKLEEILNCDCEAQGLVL"}
{"Variant": "R5W", "normalised enrichment score": 0.502}
{"Variant": "D11R", "normalised enrichment score": 0.429}
{"Variant": "R5L", "normalised enrichment score": -0.305}
{"Variant": "S2N", "normalised enrichment score": -0.173}
{"Variant": "S4L", "normalised enrichment score": 0.185}
{"Variant": "L8E", "normalised enrichment score": -0.163}
{"Variant": "D12A", "normalised enrichment score": 0.0434}
{"Variant": "L8C", "normalised enrichment score": -0.053}
{"Variant": "K3G", "normalised enrichment score": -0.0808}
{"Variant": "D12Q", "normalised enrichment score": 0.00124}
{"Variant": "D12C", "normalised enrichment score": 0.0178}
{"Variant": "Q7L", "normalised enrichment score": -0.0466}
{"Variant": "V6G", "normalised enrichment score": -0.061}
{"Variant": "S2G", "normalised enrichment score": -0.131}
{"Variant": "Q7M", "normalised enrichment score": -0.486}
{"Variant": "D11G", "normalised enrichment score": 0.417}
{"Variant": "K3H", "normalised enrichment score": 0.0526}
{"Variant": "Q7P", "normalised enrichment score": -0.225}
{"data": "Set 3", "target": "UBE2G1 UBC core domain (UniProt P62253)", "technique": "yeast two-hybrid", "sample": "yeast", "notes": "mostly zero background", "baseline": "not given", "reading": "higher = stronger interaction", "B1": "RNF183 RING domain (UniProt Q96D59); chain EQQGRELEAECPVCWNPFNNTFHTPKMLDCCHSFCVECLAHLSLVTPARRRLLCPLCRQPTVLASGQP", "B2": "TRIM60 RING domain (UniProt Q495X7); chain ALVNLQEESSCPICLEYLKDPVTINCGHNFCRSCLSVSWKDLDDTFPCPVCRFCFPYKSFRR", "B3": "TRIM37 RING domain (UniProt O94972); chain SVESIAEVFRCFICMEKLRDARLCPHCSKLCCFSCIRRWLTEQRAQCPHCRAPLQLRELVN", "B4": "RNF187 RING domain (UniProt Q5TA31); chain ALPAGPAEAACALCQRAPREPVRADCGHRFCRACVVRFWAEEDGPFPCPECADDCWQRAVEP", "B5": "RNF31 RING domain (UniProt Q96EP0); chain AFLRRLLAQECAVCGWALPHNRMQALTSCECTICPDCFRQHFTIALKEKHITDMVCPACGRPDLTDDTQLL", "B6": "RNF2 RING domain (UniProt Q99496); chain SPRSLHSELMCPICLDMLKNTMTTKECLHRFCADCIITALRSGNKECPTCRKKLVSKRSLR", "Construct (chain)": "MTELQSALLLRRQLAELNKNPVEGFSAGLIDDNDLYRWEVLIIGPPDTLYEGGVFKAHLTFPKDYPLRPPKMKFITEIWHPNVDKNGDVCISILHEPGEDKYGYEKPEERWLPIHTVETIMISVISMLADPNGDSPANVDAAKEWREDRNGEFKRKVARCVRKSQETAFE"}
{"Sequence": "B1 (RNF183 RING domain)", "lacZ reporter activity": 0}
{"Sequence": "RYRQMEERITCPICIDSHIRLVFQCGHGACAPCGSALSACPICRQPIRDRIQIF (MIB2 RING domain (UniProt Q96AX9))", "lacZ reporter activity": 0}
{"Sequence": "YPEEVDDDLICHICLQALLDPLDTPCGHTYCTLCLTNFLVEKDFCPMDRKPLVLQHCKK (LNX1 RING domain (UniProt Q8TBB1))", "lacZ reporter activity": 0}
{"Sequence": "B2 (TRIM60 RING domain)", "lacZ reporter activity": 0}
{"Sequence": "B3 (TRIM37 RING domain)", "lacZ reporter activity": 0}
{"Sequence": "LGTKLEAKYLCSACRNVLRRPFQAQCGHRYCSFCLASILSSGPQNCAACVHEGIYEEGIS (TRAF2 RING domain (UniProt Q12933))", "lacZ reporter activity": 0}
{"Sequence": "KPDKMEETLTCIICQDLLHDCVSLQPCMHTFCAACYSGWMERSSLCPTCRCPVERICKNH (CHFR RING domain (UniProt Q96EP1))", "lacZ reporter activity": 0}
{"Sequence": "LDAASGHPLVCPLCHGQYERPCLLDCFHDFCTGCLRGRATDGRLSCPLCQHQTLVKGPSG (Rnf207 RING domain (UniProt Q3V3A7))", "lacZ reporter activity": 0}
{"Sequence": "B4 (RNF187 RING domain)", "lacZ reporter activity": 0}
{"Sequence": "AEADPLGRFTCPVCLEVYEKPVQVPCGHVFCSACLQECLKPKKPVCGVCRSALAPGVRAV (RNF114 RING domain (UniProt Q9Y508))", "lacZ reporter activity": 0}
{"Sequence": "B5 (RNF31 RING domain)", "lacZ reporter activity": 0}
{"Sequence": "B6 (RNF2 RING domain)", "lacZ reporter activity": 0}
{"Sequence": "PEELAVNNDDCAICWDSMQAARKLPCGHLFHNSCLRSWLEQDTSCPTCRMSLNIADNNR (AMFR RING domain (UniProt Q9UKV5))", "lacZ reporter activity": 0}
{"data": "Set 4", "target": "ABI1, truncated, D143A, DHFR fusion (Arabidopsis thaliana)", "technique": "DHFR PCA, deep sequencing", "sample": "yeast", "notes": "methotrexate growth selection, single substitutions", "with": "(+)-ABA 2500 µM", "baseline": "wild-type fitted maximum", "reading": "higher = stronger binding", "starting sequence": "PYL1, truncated, DHFR fusion (Arabidopsis thaliana); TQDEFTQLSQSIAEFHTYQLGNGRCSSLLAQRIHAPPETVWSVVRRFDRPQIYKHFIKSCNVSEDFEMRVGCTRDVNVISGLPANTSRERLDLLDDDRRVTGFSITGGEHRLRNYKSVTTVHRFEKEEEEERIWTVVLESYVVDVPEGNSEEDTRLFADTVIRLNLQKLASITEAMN; partner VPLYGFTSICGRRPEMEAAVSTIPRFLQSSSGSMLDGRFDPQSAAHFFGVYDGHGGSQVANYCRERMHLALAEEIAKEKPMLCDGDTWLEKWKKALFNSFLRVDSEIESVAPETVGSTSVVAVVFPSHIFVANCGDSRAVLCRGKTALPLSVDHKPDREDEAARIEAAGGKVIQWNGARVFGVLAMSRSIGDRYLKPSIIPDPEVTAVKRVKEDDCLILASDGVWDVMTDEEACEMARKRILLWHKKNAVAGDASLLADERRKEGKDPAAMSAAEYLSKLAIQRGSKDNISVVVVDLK"}
{"Variant": "I52T", "relative binding score [%]": 96.4}
{"Variant": "G148W", "relative binding score [%]": 85.2}
{"Variant": "V121E", "relative binding score [%]": -11.1}
{"Variant": "E67P", "relative binding score [%]": 87.1}
{"Variant": "R49L", "relative binding score [%]": 88.8}
{"Variant": "L166Y", "relative binding score [%]": 41.9}
{"Variant": "L94A", "relative binding score [%]": 78.5}
{"Variant": "V142Y", "relative binding score [%]": 87.3}
{"Variant": "P36W", "relative binding score [%]": 81.7}
{"Variant": "L20R", "relative binding score [%]": 97.9}
{"Variant": "Y115K", "relative binding score [%]": -0.576}
{"Variant": "Q10L", "relative binding score [%]": 92.2}
{"Variant": "R24W", "relative binding score [%]": 86.2}
{"Variant": "D48I", "relative binding score [%]": 40}
{"Variant": "V100R", "relative binding score [%]": 91.6}
{"Variant": "A175V", "relative binding score [%]": 94.4}
{"Variant": "M68Q", "relative binding score [%]": 93.9}
{"Variant": "W41Q", "relative binding score [%]": -3.18}
{"Variant": "T173R", "relative binding score [%]": 54.7}
{"Variant": "M176Y", "relative binding score [%]": 94.4}
{"Variant": "L166A", "relative binding score [%]": 36.8}
{"Variant": "T120L", "relative binding score [%]": 19.8}
{"Variant": "E139V", "relative binding score [%]": 94}
{"Variant": "V62L", "relative binding score [%]": 99.8}
{"Variant": "T101M", "relative binding score [%]": 101}
{"note": "For quick reference, copied from above (set 1):"}
{"Oligonucleotide": "UGCCAGGCCCACCCCCAGGUGUUCCCGCGCCUGGGGGCCCACCCCUGUCCACCGGACCUAUAGUGGACCUGCUCCAGUACAGCCAGAAGG", "log2 enrichment": 0.165}
{"Oligonucleotide": "AGUCCUGUGCUACACAUCGUAUGUACCGAAUCGGGGUUUGGGGAAAAAGGGGAGGGGAAAGUAUUAUGUUACGCCGUUCGGAUCUGCACU", "log2 enrichment": -0.0837}
{"Oligonucleotide": "CCUCAAGUCCUGUGCUACACAUCGUAUGUACCGAAUCGGGGUGGGUGGGUGGAAAGUAUUAUGUUACGCCGUUCGGAUCUGCACUUCCAG", "log2 enrichment": -0.325}
{"Oligonucleotide": "UGCACUGACUGGUGGUGUCAACCCAUGGCUCAACUGGAAGCACUGUGGAAGAAGAUGGAGGGUGUGGUAAGUCCAUCAGACCUGGGACCG", "log2 enrichment": -2.25}
{"Oligonucleotide": "ACCAUGCAGGUGGGCAUCUUUGGGAAGAGGGGCAAGGGGGGGAUAGGGAGGGGGGUAACACUUUGGGAACAGGUGGUCCCAGGUCGUUUC", "log2 enrichment": 0.0794}
